Results pooled from the literature.
Each numbered part is a random draw from the data of one study; scales do not carry over between parts. Changes are numbered by the printed parent chain.
UniProt Q04771, sequence (whole entry, looked up): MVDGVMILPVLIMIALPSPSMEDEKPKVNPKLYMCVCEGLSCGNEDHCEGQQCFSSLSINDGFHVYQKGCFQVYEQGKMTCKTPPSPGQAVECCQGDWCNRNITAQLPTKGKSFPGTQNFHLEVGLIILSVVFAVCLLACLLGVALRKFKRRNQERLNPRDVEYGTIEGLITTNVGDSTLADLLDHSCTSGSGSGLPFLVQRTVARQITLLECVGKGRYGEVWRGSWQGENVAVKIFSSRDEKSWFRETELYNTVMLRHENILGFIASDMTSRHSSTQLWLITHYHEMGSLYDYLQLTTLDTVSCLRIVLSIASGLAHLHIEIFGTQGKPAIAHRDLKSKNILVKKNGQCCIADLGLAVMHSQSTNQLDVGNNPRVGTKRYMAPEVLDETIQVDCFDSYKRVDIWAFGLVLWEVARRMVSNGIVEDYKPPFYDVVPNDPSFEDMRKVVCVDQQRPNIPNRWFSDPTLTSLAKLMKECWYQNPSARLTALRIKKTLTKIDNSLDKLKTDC
UniProt P07332, sequence (whole entry, looked up): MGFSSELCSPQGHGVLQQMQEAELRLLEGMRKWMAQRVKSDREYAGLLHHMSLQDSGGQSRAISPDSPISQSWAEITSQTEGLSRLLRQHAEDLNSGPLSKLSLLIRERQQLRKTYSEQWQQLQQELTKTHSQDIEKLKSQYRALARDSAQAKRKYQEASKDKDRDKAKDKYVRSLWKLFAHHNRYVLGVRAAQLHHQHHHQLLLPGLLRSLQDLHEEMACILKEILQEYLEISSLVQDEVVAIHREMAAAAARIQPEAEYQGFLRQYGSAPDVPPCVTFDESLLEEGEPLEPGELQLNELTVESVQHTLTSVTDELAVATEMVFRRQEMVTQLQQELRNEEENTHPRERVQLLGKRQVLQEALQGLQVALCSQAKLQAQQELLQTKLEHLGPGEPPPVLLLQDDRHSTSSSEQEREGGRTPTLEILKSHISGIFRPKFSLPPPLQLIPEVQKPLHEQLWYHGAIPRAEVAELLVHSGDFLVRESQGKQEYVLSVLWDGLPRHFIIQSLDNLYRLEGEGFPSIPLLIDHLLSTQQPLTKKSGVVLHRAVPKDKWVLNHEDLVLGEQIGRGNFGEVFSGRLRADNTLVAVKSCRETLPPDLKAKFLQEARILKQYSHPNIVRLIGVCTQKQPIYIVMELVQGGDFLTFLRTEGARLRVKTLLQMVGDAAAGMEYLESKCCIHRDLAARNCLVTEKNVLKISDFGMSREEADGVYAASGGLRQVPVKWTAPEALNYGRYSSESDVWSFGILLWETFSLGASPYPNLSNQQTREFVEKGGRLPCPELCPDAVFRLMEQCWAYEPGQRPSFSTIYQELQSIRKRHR
UniProt P35916, sequence (whole entry, looked up): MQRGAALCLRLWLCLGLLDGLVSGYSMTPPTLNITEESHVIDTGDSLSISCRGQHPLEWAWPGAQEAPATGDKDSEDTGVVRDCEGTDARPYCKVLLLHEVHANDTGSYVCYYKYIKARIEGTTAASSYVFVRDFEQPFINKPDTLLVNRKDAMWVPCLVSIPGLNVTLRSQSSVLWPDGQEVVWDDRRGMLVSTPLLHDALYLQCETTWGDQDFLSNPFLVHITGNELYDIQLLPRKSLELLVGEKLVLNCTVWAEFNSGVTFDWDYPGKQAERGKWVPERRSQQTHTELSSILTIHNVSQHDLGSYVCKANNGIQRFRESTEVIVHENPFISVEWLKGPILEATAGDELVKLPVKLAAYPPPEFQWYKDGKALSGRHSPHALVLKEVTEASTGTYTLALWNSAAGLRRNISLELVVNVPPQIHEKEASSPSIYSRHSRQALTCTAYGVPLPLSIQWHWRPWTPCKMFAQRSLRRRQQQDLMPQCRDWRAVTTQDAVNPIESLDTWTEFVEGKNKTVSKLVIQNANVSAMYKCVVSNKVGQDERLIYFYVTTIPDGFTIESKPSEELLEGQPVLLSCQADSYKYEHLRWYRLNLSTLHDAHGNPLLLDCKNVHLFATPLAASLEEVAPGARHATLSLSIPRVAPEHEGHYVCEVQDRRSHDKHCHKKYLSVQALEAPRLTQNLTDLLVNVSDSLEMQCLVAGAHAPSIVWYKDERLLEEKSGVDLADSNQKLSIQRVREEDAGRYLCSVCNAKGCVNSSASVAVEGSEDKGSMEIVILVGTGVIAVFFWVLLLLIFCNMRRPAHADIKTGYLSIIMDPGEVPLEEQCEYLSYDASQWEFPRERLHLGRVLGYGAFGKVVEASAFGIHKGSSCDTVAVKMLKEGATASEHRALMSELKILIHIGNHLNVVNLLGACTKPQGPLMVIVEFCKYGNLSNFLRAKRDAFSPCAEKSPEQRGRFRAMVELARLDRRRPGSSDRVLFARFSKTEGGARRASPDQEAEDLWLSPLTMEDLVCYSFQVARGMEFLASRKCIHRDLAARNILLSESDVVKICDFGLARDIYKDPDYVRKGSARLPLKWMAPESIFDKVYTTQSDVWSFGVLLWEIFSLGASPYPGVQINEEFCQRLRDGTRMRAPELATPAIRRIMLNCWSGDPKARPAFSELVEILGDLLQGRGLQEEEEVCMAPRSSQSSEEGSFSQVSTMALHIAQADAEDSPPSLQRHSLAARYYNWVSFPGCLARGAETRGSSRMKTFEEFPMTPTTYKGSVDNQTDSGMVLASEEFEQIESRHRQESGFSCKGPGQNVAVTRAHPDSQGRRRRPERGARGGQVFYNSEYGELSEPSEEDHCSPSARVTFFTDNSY

Set 1
Target: CCNE1, cyclin fold, Cln2 fusion (human)
Technique: yeast growth competition, sequencing
Sample: yeast
Notes: strong parent motif
Baseline: not given
Direction: higher = stronger binding
Endpoint: normalised enrichment score
Starting sequence: RBL2 docking peptide (human); STTRRRLFVENDS
STLRRRLFVENDS [T3L]: 2.54
STTRRRLFVENDG [S13G]: 5.94
STARRRLFVENDS [T3A]: 6.65
STTRRRLFVENDY [S13Y]: 6.21
SHTRRRLFVENDS [T2H]: 6.85
STTRRMLFVENDS [R6M]: 2.61
STTRRRTFVENDS [L7T]: 0.154
STTRRRLFVENIS [D12I]: 5.04

Set 2
Target: TAR DNA-binding protein 43, full length, His tag (TARDBP, Homo sapiens, UniProt Q13148, residues 1-414)
Technique: RNA Bind-n-Seq
Form: RNA
Sample: in vitro
Tested at: 20 nM
Notes: 6-mer, flanks averaged, single round
Together with: 150 mM LiCl
Baseline: input library
Direction: higher = stronger binding
Endpoint: 6-mer enrichment (R)
ACUCGG: 0.847
GGCAUU: 0.932
UUGAAU: 1.06
AAGAGU: 1
AGGUCC: 0.885
CCAAAG: 0.828
UUCAAC: 0.836
AUUGGU: 1.08

Set 3
Structure (SMILES): CCCOc1ccc([C@H]2[C@H](C(=O)O)[C@@H](c3ccc4c(c3)OCO4)CN2CC(=O)Nc2c(CC)cccc2CC)cc1
Read-out: cell-free assay
Technique: competition with immobilised ligand
Tested at: 1 µM
Endpoint: remaining binding
Tyrosine-protein kinase Fes/Fps (FES, Homo sapiens, UniProt P07332): 96%
Vascular endothelial growth factor receptor 3 (FLT4, Homo sapiens, UniProt P35916): 90%
Activin receptor type-1 (ACVR1, Homo sapiens, UniProt Q04771): 100%

Single results of other studies
CCOC(=O)[C@@H]1CSCC(=O)N[C@@H](CC)C(=O)N(C)[C@@H](C)C(=O)N[C@H](CC(C)C)C(=O)N2CCC[C@H]2C(=O)N(CC)CC(=O)N[C@@H](CC(C)C)C(=O)N(C)[C@H](C)C(=O)N[C@@H](CC(C)C)C(=O)N1C — logD (hydrocarbon/water): -0.38
